Experimental data collected from several papers.
Every numbered part comes from another study and shows a few of its results, in no order.

Set 1 — method: universal PBM; form: double-stranded DNA, one strand shown; matrix: in vitro; tested at: 600 nM; reading: higher = stronger binding
Target: Sal-like protein 4, full length isoform A (SALL4, Homo sapiens, UniProt Q9UJQ4, residues 1-1053)
Sequence of UniProt Q9UJQ4 (whole entry, looked up): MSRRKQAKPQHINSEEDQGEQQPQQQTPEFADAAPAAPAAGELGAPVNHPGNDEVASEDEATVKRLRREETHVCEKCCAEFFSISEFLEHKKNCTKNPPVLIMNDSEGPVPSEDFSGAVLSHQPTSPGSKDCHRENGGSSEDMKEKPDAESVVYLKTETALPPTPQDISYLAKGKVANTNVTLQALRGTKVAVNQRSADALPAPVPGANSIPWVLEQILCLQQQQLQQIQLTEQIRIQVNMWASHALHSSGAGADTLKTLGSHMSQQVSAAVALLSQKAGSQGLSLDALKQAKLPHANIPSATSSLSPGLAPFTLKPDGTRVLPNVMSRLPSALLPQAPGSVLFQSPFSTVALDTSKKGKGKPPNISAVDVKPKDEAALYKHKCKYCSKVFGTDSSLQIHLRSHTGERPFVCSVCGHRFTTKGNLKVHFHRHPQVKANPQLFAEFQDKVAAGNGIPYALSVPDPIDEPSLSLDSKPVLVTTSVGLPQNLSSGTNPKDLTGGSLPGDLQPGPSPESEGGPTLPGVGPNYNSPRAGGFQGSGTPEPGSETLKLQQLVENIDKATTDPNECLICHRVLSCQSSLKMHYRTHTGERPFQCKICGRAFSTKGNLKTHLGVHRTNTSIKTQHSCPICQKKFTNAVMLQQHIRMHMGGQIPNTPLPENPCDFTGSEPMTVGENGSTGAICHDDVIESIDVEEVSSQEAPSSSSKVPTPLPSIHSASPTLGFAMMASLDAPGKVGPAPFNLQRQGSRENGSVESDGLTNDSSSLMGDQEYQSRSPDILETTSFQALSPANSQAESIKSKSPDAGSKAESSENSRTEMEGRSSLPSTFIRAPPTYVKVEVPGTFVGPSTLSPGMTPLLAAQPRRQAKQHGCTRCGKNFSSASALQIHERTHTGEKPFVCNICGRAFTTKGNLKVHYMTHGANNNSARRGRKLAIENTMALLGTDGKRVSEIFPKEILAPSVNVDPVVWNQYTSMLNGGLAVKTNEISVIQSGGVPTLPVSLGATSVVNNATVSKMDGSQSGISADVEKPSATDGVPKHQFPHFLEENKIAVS
Notes: 8-mer, flanks averaged, mean of replicates
| Oligonucleotide | E-score |
| --- | --- |
| GTTAATCA | 0.277 |
| ACTGCCAC | -0.19 |
| ATCCACAC | -0.137 |
| ATCGCATG | 0.0341 |
| GCACGAGA | -0.131 |
| ACCTGATG | -0.144 |
| AACGTGGG | -0.144 |

Set 2 — method: protein-binding microarray; form: double-stranded DNA, one strand shown; matrix: in vitro; tested at: 940 nM top; notes: 60-bp whole probe; together with: salmon DNA 0.4 mg/ml; relative to: random background probes; reading: higher = stronger binding
Target: Interferon regulatory factor 5, full length, phosphomimetic (IRF5, Homo sapiens, UniProt Q13568-2, residues 1-514, S451D/S453D/S456D/S462D)
| Oligonucleotide | fitted relative affinity |
| --- | --- |
| GCCTAGCACGGCGGTTTCGACTTTCGGGACGTGCTAGTCTTGATTCGCTTGACGCTGCTG | 7.46 z-score |
| GCCTAGCACTTCAGTTTTCTTTTCCATTTGTGCTAGGTCTTGATTCGCTTGACGCTGCTG | 2.1 z-score |
| GCCTAGCACTTGGGTTTCCTTTCCCTTTAGTGCTAGGTCTTGATTCGCTTGACGCTGCTG | 1.69 z-score |
| GCCTAGCACGACGAAATCAGACTGGAGACGTGCTAGGTCTTGATTCGCTTGACGCTGCTG | -0.294 z-score |

Set 3 — method: protein binding microarray; form: double-stranded DNA, one strand shown; matrix: in vitro; tested at: not given; relative to: not given; reading: higher = stronger binding
Target: Histone acetyltransferase KAT6A, both winged helices, GST fusion (KAT6A, Homo sapiens, UniProt Q92794, residues 1-181)
Notes: 8-mer, flanks averaged, mean of 2 arrays, mostly near background
Target sequence (chain): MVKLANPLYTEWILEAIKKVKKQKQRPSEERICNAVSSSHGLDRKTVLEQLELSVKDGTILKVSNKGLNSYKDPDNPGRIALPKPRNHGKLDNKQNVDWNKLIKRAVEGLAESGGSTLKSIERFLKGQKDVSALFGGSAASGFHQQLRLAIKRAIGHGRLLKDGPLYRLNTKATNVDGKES
| Oligonucleotide | E-score |
| --- | --- |
| AAGTTCGT | 0.0278 |
| TTATCCAA | -0.0393 |
| CACTTCAG | -0.199 |
| ACCCTCTG | -0.194 |
| ATGCCCAA | -0.0901 |
| ACGTTTGG | -0.0963 |
| ACGCCAGT | 0.0255 |

Single results of other studies
| Substance | target | assay | test system | setting | how to read | measurement | result |
| --- | --- | --- | --- | --- | --- | --- | --- |
| PhoQ, residues 284 288 289 292 302 303 SLKLQV | PhoP, residues 12 14 15 18 19 LHSVQ (Escherichia coli, UniProt P23836) | Sort-seq, refers to: YFP reporter | E. coli | PhoQ-PhoP variant library, together with: 10 µM Mg2+ | relative to: high Mg2+ state, higher = stronger signaling | fold induction | 14.2 |

Some of these lines once more (set 3):
| Oligonucleotide | E-score |
| --- | --- |
| CACTTCAG | -0.199 |
| ACCCTCTG | -0.194 |
| ATGCCCAA | -0.0901 |
